Measurements from different studies.
Lines come from different studies, so protocols differ. ± gives the spread as reported. ≈ marks a conversion by molar mass, not a printed value.
UniProt P11362, sequence (whole entry, looked up): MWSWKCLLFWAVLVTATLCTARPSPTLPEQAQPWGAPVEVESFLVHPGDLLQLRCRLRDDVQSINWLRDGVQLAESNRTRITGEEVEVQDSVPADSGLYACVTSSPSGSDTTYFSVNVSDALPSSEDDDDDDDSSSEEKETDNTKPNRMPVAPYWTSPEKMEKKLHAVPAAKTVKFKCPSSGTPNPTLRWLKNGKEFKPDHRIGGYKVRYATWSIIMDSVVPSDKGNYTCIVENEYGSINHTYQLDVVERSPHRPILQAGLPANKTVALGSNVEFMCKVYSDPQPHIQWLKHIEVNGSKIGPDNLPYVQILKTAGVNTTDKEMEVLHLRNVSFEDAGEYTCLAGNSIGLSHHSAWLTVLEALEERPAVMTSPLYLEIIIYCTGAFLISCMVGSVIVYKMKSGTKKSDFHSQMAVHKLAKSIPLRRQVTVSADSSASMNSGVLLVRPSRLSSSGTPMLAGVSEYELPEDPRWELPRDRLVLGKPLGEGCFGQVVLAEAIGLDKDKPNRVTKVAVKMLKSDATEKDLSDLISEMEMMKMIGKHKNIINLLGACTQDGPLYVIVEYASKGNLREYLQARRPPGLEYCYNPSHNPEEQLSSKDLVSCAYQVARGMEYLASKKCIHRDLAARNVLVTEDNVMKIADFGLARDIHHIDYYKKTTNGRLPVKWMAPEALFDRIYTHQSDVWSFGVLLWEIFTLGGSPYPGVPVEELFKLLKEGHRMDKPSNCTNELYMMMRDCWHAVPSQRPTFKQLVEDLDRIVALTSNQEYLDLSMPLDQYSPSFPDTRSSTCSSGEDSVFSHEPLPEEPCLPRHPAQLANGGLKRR

Structure (SMILES) | target or system | assay | test system | setting | measurement | value
COc1cc(-c2nc3ccccc3c(=O)n2Nc2ccc([N+](=O)[O-])cc2[N+](=O)[O-])ccc1OCc1cn(CC(=O)Nc2ccc([N+](=O)[O-])cc2Cl)nn1 | mushroom tyrosinase | enzyme activity |  | 40 µM, with: L-DOPA | inhibition | 43.5 ± 1.37%
CCOc1c([C@H](C)n2nc(C)c3c(N)ncnc32)cc(Cl)c(F)c1[C@@H]1CNC(=O)C1 |  |  | human patients, Hodgkin lymphoma, plasma | oral, 30 mg, day 15, monotherapy, geometric mean | half-life | 9.9 h
O=C(O)c1cn(Cc2ccc(C(F)(F)F)cc2)c2ccc(Oc3ccccc3)cc2c1=O | MDA-MB-231/LM2-4 | DNS |  | 72 h, 10% FBS | CC50 | 10.2 ± 1.82 µM
COc1cc(-c2nc3ccccc3c(=O)n2Nc2ccc([N+](=O)[O-])cc2[N+](=O)[O-])ccc1OCc1cn(CC(=O)Nc2ccc(Cl)cc2Cl)nn1 | mushroom tyrosinase | enzyme activity |  | 40 µM, with: L-DOPA | inhibition | 29.4 ± 2.92%
Cc1ccc(N=Nc2c(N)nn3c(-c4ccc(Cl)cc4Cl)cc(-c4ccc(OCc5ccccc5)cc4)nc23)cc1 | Bacillus pumilus | broth microdilution | MTCC 2296 |  | MBC | 62.5 µg/mL (≈ 108 µM)
O=C(Nc1cc(-c2ccc(Cl)cc2)[nH]n1)C1CCCCC1 | Fibroblast growth factor receptor 1 (FGFR1, Homo sapiens, UniProt P11362) | enzyme activity, Dundee kinase panel |  | 10 µM | remaining activity | 114%
COc1cc(/C=N/NC(=S)N/N=C/c2ccc(C=O)cc2)ccc1Oc1ccnc2cc(Cl)ccc12 | human lysosomal acid alpha-glucosidase | inhibitor |  | with: pNPG substrate | IC50 | 10.6 ± 0.4 µg/mL (≈ 20.4 µM)
